Experimental data gathered from unrelated publications.
Compare with care: the assays were run in different laboratories. “And” joins repeats or separate records; there may be more than shown. Numbers after ± are the reported error.
Chain of UniProt Q8VEB4 (whole entry, looked up): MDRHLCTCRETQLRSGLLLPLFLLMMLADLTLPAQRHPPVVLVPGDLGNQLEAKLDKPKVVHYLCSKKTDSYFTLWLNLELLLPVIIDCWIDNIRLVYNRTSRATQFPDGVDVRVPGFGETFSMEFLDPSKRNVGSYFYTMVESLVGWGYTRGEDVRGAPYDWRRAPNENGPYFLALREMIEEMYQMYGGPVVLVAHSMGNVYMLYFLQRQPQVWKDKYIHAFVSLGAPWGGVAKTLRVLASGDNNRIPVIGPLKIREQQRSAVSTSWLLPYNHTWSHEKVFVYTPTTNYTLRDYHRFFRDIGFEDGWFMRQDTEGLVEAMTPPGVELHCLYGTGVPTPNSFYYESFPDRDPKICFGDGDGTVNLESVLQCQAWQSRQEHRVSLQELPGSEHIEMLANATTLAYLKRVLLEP
Chain of UniProt Q00987 (whole entry, looked up): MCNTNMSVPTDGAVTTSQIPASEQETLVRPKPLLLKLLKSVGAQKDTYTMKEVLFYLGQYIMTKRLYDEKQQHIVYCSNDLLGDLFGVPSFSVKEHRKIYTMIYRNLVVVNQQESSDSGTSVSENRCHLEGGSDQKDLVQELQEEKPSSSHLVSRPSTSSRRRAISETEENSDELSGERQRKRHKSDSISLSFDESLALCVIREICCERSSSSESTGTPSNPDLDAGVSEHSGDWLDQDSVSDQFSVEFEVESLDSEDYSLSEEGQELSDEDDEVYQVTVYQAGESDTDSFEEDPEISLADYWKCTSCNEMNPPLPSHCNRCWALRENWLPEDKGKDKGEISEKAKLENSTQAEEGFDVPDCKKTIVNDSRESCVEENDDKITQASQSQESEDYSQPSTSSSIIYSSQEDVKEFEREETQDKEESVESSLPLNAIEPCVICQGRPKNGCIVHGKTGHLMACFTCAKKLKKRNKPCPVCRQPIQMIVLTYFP
Chain of UniProt P16675 (whole entry, looked up): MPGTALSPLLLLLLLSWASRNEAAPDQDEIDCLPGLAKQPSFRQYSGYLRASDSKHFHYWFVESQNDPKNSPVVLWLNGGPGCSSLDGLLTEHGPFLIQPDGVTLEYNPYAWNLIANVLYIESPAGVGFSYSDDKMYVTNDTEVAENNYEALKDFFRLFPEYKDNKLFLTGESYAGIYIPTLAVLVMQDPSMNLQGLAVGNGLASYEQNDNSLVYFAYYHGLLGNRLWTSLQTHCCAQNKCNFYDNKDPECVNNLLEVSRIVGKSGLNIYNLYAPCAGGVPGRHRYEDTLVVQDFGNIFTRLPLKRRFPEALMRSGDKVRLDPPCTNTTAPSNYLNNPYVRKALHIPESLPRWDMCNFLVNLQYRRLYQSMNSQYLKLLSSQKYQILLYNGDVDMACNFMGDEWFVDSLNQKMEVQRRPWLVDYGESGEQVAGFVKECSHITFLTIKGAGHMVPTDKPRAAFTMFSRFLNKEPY
Chain of UniProt Q9Y2J8 (whole entry, looked up): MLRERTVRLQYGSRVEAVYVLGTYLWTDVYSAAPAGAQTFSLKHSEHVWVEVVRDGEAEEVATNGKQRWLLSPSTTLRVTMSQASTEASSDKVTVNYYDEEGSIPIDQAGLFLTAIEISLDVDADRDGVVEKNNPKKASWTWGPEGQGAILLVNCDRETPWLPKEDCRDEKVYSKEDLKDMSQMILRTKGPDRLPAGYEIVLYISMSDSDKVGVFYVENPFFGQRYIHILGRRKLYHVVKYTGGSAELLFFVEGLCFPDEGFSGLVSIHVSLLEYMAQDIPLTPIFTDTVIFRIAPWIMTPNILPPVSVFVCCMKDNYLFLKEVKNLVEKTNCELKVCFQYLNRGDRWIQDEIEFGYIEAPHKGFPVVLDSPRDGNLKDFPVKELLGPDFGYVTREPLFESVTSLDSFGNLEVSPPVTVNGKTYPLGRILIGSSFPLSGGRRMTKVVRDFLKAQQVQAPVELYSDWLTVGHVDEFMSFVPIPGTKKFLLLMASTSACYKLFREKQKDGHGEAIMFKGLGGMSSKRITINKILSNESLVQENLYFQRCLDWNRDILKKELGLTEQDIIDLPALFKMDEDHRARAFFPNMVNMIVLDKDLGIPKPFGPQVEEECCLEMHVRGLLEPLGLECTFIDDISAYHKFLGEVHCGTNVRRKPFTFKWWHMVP
Chain of UniProt Q00534 (whole entry, looked up): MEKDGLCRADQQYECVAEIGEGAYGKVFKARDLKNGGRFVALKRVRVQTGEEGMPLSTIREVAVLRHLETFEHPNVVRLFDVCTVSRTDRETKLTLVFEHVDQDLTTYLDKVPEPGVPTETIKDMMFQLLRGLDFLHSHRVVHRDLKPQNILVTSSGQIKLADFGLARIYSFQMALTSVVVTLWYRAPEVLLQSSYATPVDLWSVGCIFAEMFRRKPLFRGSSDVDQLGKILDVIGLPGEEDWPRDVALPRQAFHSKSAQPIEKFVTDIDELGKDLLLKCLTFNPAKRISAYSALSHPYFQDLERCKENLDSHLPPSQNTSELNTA
Chain of UniProt Q5VT25 (whole entry, looked up): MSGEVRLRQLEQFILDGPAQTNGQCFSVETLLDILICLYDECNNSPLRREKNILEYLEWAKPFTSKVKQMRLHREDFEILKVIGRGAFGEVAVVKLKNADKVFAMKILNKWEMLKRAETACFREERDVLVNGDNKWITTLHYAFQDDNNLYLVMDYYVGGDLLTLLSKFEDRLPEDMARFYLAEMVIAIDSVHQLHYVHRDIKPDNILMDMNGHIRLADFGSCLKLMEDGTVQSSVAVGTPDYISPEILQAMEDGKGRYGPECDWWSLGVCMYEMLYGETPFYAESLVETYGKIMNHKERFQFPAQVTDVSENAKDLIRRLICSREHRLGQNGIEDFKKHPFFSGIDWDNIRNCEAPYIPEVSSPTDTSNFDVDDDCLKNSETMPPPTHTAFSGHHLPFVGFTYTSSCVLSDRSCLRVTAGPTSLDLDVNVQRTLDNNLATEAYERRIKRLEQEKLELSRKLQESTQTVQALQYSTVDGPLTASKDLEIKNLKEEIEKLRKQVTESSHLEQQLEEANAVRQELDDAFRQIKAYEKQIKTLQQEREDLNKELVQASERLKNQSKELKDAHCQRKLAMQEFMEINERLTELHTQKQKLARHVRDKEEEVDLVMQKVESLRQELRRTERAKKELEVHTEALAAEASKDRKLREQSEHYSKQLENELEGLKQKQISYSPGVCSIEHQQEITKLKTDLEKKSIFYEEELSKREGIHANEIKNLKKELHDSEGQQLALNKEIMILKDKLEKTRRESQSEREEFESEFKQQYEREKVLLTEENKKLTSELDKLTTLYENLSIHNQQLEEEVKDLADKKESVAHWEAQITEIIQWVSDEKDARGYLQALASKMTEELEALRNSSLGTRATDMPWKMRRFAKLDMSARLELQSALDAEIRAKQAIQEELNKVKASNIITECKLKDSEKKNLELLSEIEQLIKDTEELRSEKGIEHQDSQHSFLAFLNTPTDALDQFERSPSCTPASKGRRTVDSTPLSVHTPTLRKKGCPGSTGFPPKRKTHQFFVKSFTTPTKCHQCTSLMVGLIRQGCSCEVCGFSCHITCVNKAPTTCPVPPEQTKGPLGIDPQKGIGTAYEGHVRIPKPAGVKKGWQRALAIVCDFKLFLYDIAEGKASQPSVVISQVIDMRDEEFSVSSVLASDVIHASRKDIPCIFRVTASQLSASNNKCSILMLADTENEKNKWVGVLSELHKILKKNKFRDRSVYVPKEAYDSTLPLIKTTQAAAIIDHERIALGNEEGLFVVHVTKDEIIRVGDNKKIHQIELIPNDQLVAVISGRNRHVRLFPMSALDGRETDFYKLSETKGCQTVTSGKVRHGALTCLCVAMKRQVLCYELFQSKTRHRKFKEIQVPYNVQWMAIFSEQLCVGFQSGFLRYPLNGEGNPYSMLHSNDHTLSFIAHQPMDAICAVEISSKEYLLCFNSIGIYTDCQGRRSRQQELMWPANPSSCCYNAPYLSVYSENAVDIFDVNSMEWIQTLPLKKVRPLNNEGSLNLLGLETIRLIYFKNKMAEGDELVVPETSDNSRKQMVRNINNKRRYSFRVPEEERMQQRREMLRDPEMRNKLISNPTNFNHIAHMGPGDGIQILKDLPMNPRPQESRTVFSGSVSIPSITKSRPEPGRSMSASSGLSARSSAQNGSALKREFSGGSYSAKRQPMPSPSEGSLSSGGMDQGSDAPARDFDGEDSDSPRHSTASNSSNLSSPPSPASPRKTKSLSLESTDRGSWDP
Chain of UniProt P25101 (whole entry, looked up): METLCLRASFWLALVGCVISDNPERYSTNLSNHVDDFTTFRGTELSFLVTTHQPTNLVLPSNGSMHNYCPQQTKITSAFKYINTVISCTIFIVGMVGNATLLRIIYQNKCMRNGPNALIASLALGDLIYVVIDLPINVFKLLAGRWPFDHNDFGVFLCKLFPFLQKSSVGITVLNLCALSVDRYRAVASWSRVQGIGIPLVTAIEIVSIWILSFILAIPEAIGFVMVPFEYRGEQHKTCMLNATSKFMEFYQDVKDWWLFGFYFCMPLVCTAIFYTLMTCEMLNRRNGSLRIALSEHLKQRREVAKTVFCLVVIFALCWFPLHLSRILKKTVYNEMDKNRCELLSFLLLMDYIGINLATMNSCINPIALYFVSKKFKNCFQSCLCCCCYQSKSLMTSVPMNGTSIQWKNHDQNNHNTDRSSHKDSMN
Chain of UniProt Q6DWJ6 (whole entry, looked up): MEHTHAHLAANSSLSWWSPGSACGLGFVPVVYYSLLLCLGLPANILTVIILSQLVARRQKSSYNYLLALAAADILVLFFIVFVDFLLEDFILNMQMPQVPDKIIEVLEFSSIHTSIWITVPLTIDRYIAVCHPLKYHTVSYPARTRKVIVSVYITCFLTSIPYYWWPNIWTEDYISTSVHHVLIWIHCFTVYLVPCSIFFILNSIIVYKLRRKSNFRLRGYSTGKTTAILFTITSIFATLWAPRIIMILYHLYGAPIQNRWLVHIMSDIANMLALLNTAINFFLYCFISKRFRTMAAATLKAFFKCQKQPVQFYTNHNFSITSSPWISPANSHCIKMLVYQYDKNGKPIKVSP

`CC[C@H](C)[C@@H]1NC(=O)[C@H](CC(C)C)NC(=O)CNC(=O)[C@H](CCCNC(=N)N)NC(=O)[C@H](Cc2c[nH]c3ccccc23)NC(=O)[C@H](CCSC)NC(=O)[C@H](CO)NC(=O)[C@H](CCC(=O)O)NC(=O)[C@H](Cc2ccccc2)NC(=O)[C@H](CC(=O)O)NC(=O)[C@H]([C@@H](C)O)NC(=O)CNC(=O)[C@H](CCC(=O)O)NC(=O)[C@H]([C@@H](C)O)NC(=O)CNC(=O)[C@H](CC(=O)O)NC1=O` gave an AlphaLISA signal of 1880 a.u. and 1580 a.u. and 1680 a.u. (E3 ubiquitin-protein ligase Mdm2 (MDM2, Homo sapiens, UniProt Q00987); MDM2-ligand binding, inhibitor, AlphaLISA competition; 6.25 µM, together with: GST-tagged MDM2 ligand; lower = stronger inhibition).
`CCC1(CC)C(=O)N(c2cccc(CN3CCN(Cc4cccc5ccccc45)CC3)c2)C1=O` has a selectivity ratio of greater than 21 (Dipeptidyl peptidase 8 (Homo sapiens, UniProt Q6V1X1); inhibitor; together with: GP-AMC substrate; relative to: Ki' DPP9 over Ki' DPP8).
With `CS(C)(=O)=Nc1ccc(-c2ccc(-c3nc4cc(O[C@@H]5CO[C@H]6[C@@H]5OC[C@H]6O)[nH]c4cc3F)cc2)cc1` the inhibition was 4% (Cyclin-dependent kinase 6, with cyclin D3 (CDK6, Homo sapiens, UniProt Q00534); enzyme activity, inhibitor; 10 µM).
Under “SILAC activity ratio”, `COCC1CCCCN1C(=O)n1cc(C(O)(c2ccccc2)c2ccccc2)nn1` (stereo not drawn) is recorded as 1.53 and 1.36 and 1.46 and 1.57 and 1.48 and 1.21 and 1.58 and 1.6 (Lysosomal phospholipase A and acyltransferase (Pla2g15, Mus musculus, UniProt Q8VEB4); probe labelling, inhibitor, competitive ABPP-SILAC, measured: Lypla3; mouse T cells; concentration not given, 4 h, single peptide; relative to: treated over DMSO cells, lower = stronger inhibition).
Under “maximal open probability”, `CCCCC/C=C\C/C=C\C/C=C\C/C=C\CCCC(=O)NCCc1ccc(O)c(O)c1` is recorded as 1.02 ± 0.16 (Transient receptor potential cation channel subfamily V member 1 (Trpv1, Mus musculus, UniProt Q704Y3, Y512F); ion current, agonist, whole-cell patch clamp; Y512F; relative to: 3 mM 2-APB).
`CC(=O)N[C@@H](CCC(N)=O)C(=O)N[C@@H](CC1CCCCC1)C(=O)N[C@@H](CNC(=O)CCl)C(=O)N[C@@H](CC(C)C)C(=O)N[C@@H](Cc1ccccc1)C(=O)O` gave a -TΔS of 1.7 kcal/mol (Beta sliding clamp (Escherichia coli, UniProt P0A988); binding, isothermal titration calorimetry; pH 7.4, 22 °C).
For `CN(C)[C@H]1C[C@@]23CC[C@@]4(O2)C(=CC[C@]2(C)[C@@H](c5ccc6ccncc6c5)CC[C@H]24)C=C3[C@@H](O)[C@@H]1O`, the inhibition was -0.6% (Cyclin-dependent kinase 6 (CDK6, Homo sapiens, UniProt Q00534); ATP probe labelling, inhibitor, KiNativ profiling; 1 µM).
`CC(C)CC(O)(CC(C)C)c1cn(C(=O)N2CCCC2)nn1` has an SILAC ratio of 1.24 and 1.34 and 1.03 and 1.32 (Lysosomal protective protein (Ctsa, Mus musculus, UniProt P16675); probe labelling, inhibitor, competitive ABPP-SILAC, measured: Ctsa; mouse T cells; concentration not given, 4 h, in situ, single peptide; relative to: treated over DMSO, lower = more inhibition).
`Cc1cc(-c2ccc3ccccc3c2)nnc1NCCN1CCN(C)CC1` — result for antagonist activity: “negative” (Endothelin-1 receptor (EDNRA, Homo sapiens, UniProt P25101); antagonist; concentration not given).
The reactivity ratio of `C#CCCCCOc1ccc2c(c1)CCCN2C(=O)CCl` is reported as 1.55 (Adipocyte plasma membrane-associated protein (Homo sapiens, UniProt Q9HDC9); mass spectrometry profiling, measured: APMAP; H460 cell lysate; 100 µM over 10 µM, UniProt Q9HDC9; relative to: high over low concentration).
For `CCOC(=O)[C@@H]1Cc2c(cc([N+](=O)[O-])cc2[N+](=O)[O-])[C@H](O)[C@]12C(=O)Nc1ccc(Br)cc12`, the remaining binding was 72% (Insulin-like growth factor 1 receptor (IGF1R, Homo sapiens, UniProt P08069); binding, competition with immobilised ligand; 0.1 µM).
The inhibition of `CC(C)[C@H]1NC(=O)C[C@H]2/C=C/CCSSC[C@@H](NC1=O)C(=O)N[C@H](Cc1cccc3ccccc13)C(=O)NCC(=O)O2` is reported as 0.367% (Homeodomain-interacting protein kinase 3 (HIPK3, Homo sapiens, UniProt Q9H422); enzyme activity, inhibitor; 10 µM).
With `N[C@H](C(=O)N1CCCC1)C1CCN(c2nccc3c(-c4ncc(Cl)cc4Cl)cccc23)CC1` the kcat was 1.66 s⁻¹ and 1.71 s⁻¹ (Protein-arginine deiminase type-2 (PADI2, Homo sapiens, UniProt Q9Y2J8); enzyme activity; 0.006291 µM, high-affinity site, together with: Ca2+ 1.5 mM).
With `CC[C@H](C)[C@H](NC(=O)[C@H](CCCNC(=N)N)NC(=O)[C@H](CCCNC(=N)N)NC(=O)[C@H](CC(C)C)NC(=O)[C@H](Cc1ccccc1)NC(=O)CNC(=O)CNC(=O)[C@@H](N)Cc1ccc(O)cc1)C(=O)N[C@@H](CCCNC(=N)N)C(=O)N1CCC[C@H]1C(=O)N[C@@H](CCCCN)C(=O)N[C@@H](CC(C)C)C(=O)N[C@@H](CCCCN)C(=O)O` the Emax was 7.71% (Probable G-protein coupled receptor 139 (GPR139, Homo sapiens, UniProt Q6DWJ6); G protein activation, agonist, BRET, measured: Gα12; HEK-293T/17; 40 µM; relative to: GαoA response).
`OC1Cc2ccccc2CC1N1CCC2(C=Cc3cc(Br)ccc32)CC1` (racemic) has a selectivity ratio of 0.12 (Vesicular acetylcholine transporter (Rattus norvegicus, UniProt Q62666); relative to: Ki sigma1 over Ki VAChT).
`CC(C)OC(=O)OCOC(=O)C(CCC(=O)O)CP(=O)(OCOC(=O)OC(C)C)OCOC(=O)OC(C)C` (stereo not drawn) — result for “reduction of tracer uptake”: 20% (Glutamate carboxypeptidase 2 (Rattus norvegicus, UniProt P70627); PET; rat, kidney; intravenous, 1 mg/kg, 30 min before tracer, together with: [68Ga]Ga-PSMA tracer; relative to: controls).
The inhibition of `C[C@H](NCc1ccc(-c2ccc(C(F)(F)F)cc2)cc1)C(N)=O` is reported as -3% (Peroxisome proliferator-activated receptor gamma (PPARG, Homo sapiens, UniProt P37231); radioligand binding, SafetyScreen panel; 1 µM, together with: 5.0 nM [3H]Rosiglitazone).
`O=C1NC(=O)c2c1c1cc(F)c[n+]3c1c1c2c2cc(O)ccc2[n]1[Ru-4]312([N]=C=S)[S+]3CC[S+]1CC[S+]2CC3` (stereo not drawn) gave a remaining activity of 110% (Serine/threonine-protein kinase MRCK alpha (CDC42BPA, Homo sapiens, UniProt Q5VT25); enzyme activity; 100 nM, human enzyme, together with: 10 µM ATP; relative to: untreated).

A few entries again:
`CC(C)OC(=O)OCOC(=O)C(CCC(=O)O)CP(=O)(OCOC(=O)OC(C)C)OCOC(=O)OC(C)C` (stereo not drawn) — result for “reduction of tracer uptake”: 20% (Glutamate carboxypeptidase 2 (Rattus norvegicus, UniProt P70627); PET; rat, kidney; intravenous, 1 mg/kg, 30 min before tracer, together with: [68Ga]Ga-PSMA tracer; relative to: controls).
